Measured values gathered from unrelated publications.
Numbered parts are unrelated; each lists some results of a single study.

Series 1
Target: Prothrombin, mature alpha-thrombin (F2, Homo sapiens, UniProt P00734)
Method: aptamer microarray, sandwich
Form: DNA with 2'F-ANA
Matrix: in vitro
Concentration: 200 nM
Notes: whole 15-mer aptamer, many near background
Together with: Cy3 exosite-II aptamer, 400 nM
Reading: higher = stronger binding
Sequence | mean fluorescence intensity [a.u.]
GGTTGGTGTGGTTGG (2'F-ANA at 2 3 4 5 6 7 11 13 15) | 92.4
GGTTGGTGTGGTTGG (2'F-ANA at 1 2 5 6 7 8 10 12 13 15) | 62.9
GGTTGGTGTGGTTGG (2'F-ANA at 1 9 13 14) | 53.6

Series 2
Target: Histone acetyltransferase KAT6A, winged helix 1, GST fusion (KAT6A, Homo sapiens, UniProt Q92794, residues 1-85)
Method: protein binding microarray
Form: double-stranded DNA, one strand shown
Matrix: in vitro
Concentration: not given
Notes: 8-mer, flanks averaged, mean of 2 arrays, mostly near background
Reference: not given
Reading: higher = stronger binding
Residues (chain): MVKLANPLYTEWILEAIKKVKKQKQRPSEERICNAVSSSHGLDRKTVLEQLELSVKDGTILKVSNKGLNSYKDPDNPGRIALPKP
Sequence | E-score
ACACTTCG | -0.174
ATATGATC | -0.00448
CACCGCAA | 0.0735

Further values, each from its own experiment
TARDBP full length, His tag: TAR DNA-binding protein 43, full length, His tag (TARDBP, Homo sapiens, UniProt Q13148, residues 1-414)
Substance | target | test | test system | conditions | scale | quantity | value
UUCCCC | TARDBP full length, His tag | RNA Bind-n-Seq | RNA, in vitro | 20 nM, 6-mer, flanks averaged, single round, together with: 150 mM KCl | reference: input library, higher = stronger binding | 6-mer enrichment (R) | 0.633
PhoQ, residues 284 288 289 292 302 303 SCKMEA | PhoP, residues 12 14 15 18 19 FWNTL (Escherichia coli, UniProt P23836) | Sort-seq, measured: YFP reporter | E. coli | PhoQ-PhoP variant library, together with: 10 µM Mg2+ | reference: high Mg2+ state, higher = stronger signaling | fold induction | 20.3
UGGCUG | TARDBP full length, His tag | RNA Bind-n-Seq | RNA, in vitro | 20 nM, 6-mer, flanks averaged, single round, together with: 150 mM KCl | reference: input library, higher = stronger binding | 6-mer enrichment (R) | 1.34

Some of these lines once more (series 2):
Sequence | E-score
CACCGCAA | 0.0735
